Experimental data collected from several papers.
Every numbered part comes from another study and shows a few of its results, in no order.

Set 1
Target: Prothrombin, mature alpha-thrombin (F2, Homo sapiens, UniProt P00734)
Method: aptamer microarray, sandwich
Molecule type: DNA with 2'F-ANA
Medium: in vitro
Tested at: 200 nM
Setting: whole 15-mer aptamer, many near background
Added: Cy3 exosite-II aptamer, 400 nM
Direction: higher = stronger binding
Endpoint: mean fluorescence intensity
Sequence: GGTTGGTGTGGTTGG
Modification = 2'F-ANA at 3 5 6 10 11 12 13 14; value = 58.7 a.u.
Modification = 2'F-ANA at 1 3 5 7 9 12 15; value = 122 a.u.
Modification = 2'F-ANA at 1 2 3 5 8 9 10 12; value = 51.4 a.u.
Modification = 2'F-ANA at 1 3 6 7 12 13 14; value = 108 a.u.
Modification = 2'F-ANA at 2 5 10 11 12; value = 49.4 a.u.
Modification = 2'F-ANA at 1 2 3 5 6 7 10 13; value = 48.1 a.u.
Modification = 2'F-ANA at 1 3 4 11 12 13 14 15; value = 77.4 a.u.
Modification = 2'F-ANA at 2 9 11 12; value = 635 a.u.
Modification = 2'F-ANA at 1 4 5 6 8 10 11 12 13 15; value = 45.8 a.u.
Modification = 2'F-ANA at 1 6 9 10 11 12 13 14; value = 55.7 a.u.
Modification = 2'F-ANA at 1 3 4 6 7 13; value = 139 a.u.
Modification = 2'F-ANA at 2 6 7 8 10 11 12 13 14 15; value = 79.9 a.u.
Modification = 2'F-ANA at 2 4 5 6 8 10 11; value = 48.9 a.u.
Modification = 2'F-ANA at 1 2 4 6 12 13 14 15; value = 56 a.u.
Modification = 2'F-ANA at 2 9 12 13; value = 529 a.u.
Modification = 2'F-ANA at 6 7 13 15; value = 404 a.u.
Modification = 2'F-ANA at 1 4 6 7 8 12 15; value = 288 a.u.
Modification = 2'F-ANA at 1 2 3 5 8 10 11 12 13 14 15; value = 50.7 a.u.
Modification = 2'F-ANA at 1 2 3 4 9 13 15; value = 98.8 a.u.
Modification = 2'F-ANA at 3 5 6 9 10 13 15; value = 52.9 a.u.
Modification = 2'F-ANA at 4 7 8 9 10 11 13; value = 78.7 a.u.
Modification = 2'F-ANA at 1 4 9 12; value = 298 a.u.
Modification = 2'F-ANA at 3 5 7 9 10 11 13; value = 58.3 a.u.
Modification = 2'F-ANA at 2 3 4 5 6 8 9 10 12 13 15; value = 54.8 a.u.
Modification = 2'F-ANA at 1 2 4 5 9 13 14 15; value = 46.8 a.u.

Set 2
Target: Histone acetyltransferase KAT6A, winged helix 2, GST fusion (KAT6A, Homo sapiens, UniProt Q92794, residues 85-181)
Method: protein binding microarray
Molecule type: double-stranded DNA, one strand shown
Medium: in vitro
Tested at: not given
Setting: 8-mer, flanks averaged, mean of 2 arrays, mostly near background
Relative to: not given
Direction: higher = stronger binding
Endpoint: E-score
Residues (chain): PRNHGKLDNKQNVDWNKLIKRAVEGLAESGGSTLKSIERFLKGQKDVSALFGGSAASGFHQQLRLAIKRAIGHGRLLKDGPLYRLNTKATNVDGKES
Sequence = CATTCGCG; value = 0.0691
Sequence = GCTTTCGA; value = 0.0154
Sequence = CAACGGTG; value = -0.256
Sequence = CAGTGACC; value = 0.0944
Sequence = GTACGCCA; value = -0.0569
Sequence = GTTGTCAA; value = -0.119
Sequence = CTCGCCAG; value = 0.0157
Sequence = GCCATCCA; value = 0.0213
Sequence = AGGTTTCC; value = 0.0316
Sequence = ATAATTGG; value = -0.0409
Sequence = ATGATCTG; value = -0.109
Sequence = AGAATCCT; value = -0.0251
Sequence = CTGTAGGC; value = -0.0448
Sequence = AAGCTTCT; value = -0.0889
Sequence = CACGTGCC; value = -0.0181
Sequence = AATAAGCA; value = 0.0746
Sequence = TCATCCGA; value = 0.0944
Sequence = ATCCTAAG; value = -0.0291
Sequence = AGCGAATG; value = -0.00155
Sequence = AGTACGTG; value = -0.277
Sequence = GTGTAGGA; value = -0.163
Sequence = TATGAAGA; value = 0.095
Sequence = CCATTATC; value = 0.0866
Sequence = AGTCGTAG; value = -0.139
Sequence = ATCATTAA; value = 0.123

Set 3
Target: RNA binding protein fox-1 homolog 2, RRM domain, GST-SBP tag (RBFOX2, Homo sapiens, UniProt O43251-10, residues 100-194)
Method: RNA Bind-n-Seq
Molecule type: RNA
Medium: in vitro
Tested at: 365 nM
Setting: natural RNA segment, single round, ends assumed
Relative to: no-protein control
Direction: higher = stronger binding
Endpoint: RBNS enrichment (R)
Construct (chain): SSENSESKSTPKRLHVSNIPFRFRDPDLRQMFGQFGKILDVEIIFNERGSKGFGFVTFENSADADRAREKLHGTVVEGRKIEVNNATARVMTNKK
Sequence = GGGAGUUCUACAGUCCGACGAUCAUGUCUGCUUCCGUCCCCUCGUUCUGGUGAACGUUGGGAGAGAGGAUGAGAGAGACAUUAAAAUUCUGGAGAUGUGCUUUUAUGAUGUUACAGAUCCAAAGACAUAGAGUUGGAAUUCUCGGGUGCCAA; value = 0.511
Sequence = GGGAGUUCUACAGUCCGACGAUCUUAUAUCAUUCUGGGUGUGUUCUUACUGACACCAGGGGUCCGCUGCCCCAUGUGUCCUGGUGAGAAAAUAUAUGCCUGGCACAGCUUUUGUAUAGAAAAUUCUUGAGAAGUGGAAUUCUCGGGUGCCAA; value = 0.448
Sequence = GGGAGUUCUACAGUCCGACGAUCCUUAUAUAUAUAAUGGUCUAUUUGAAGAGCUCACUUCAACCUAACAGCUAGAUGUCUUUACAAACCUUAAACCAAAGGAGUAAAAAAAACAAUGGUAAGCACUGAAGUAUUGGAAUUCUCGGGUGCCAA; value = 0.478
Sequence = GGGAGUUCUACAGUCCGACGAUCAGGCAGCCUCGCUCACAGCCAGGCACGUAGCUUGCUUCUGAGAUGUGGCAGGCCCUGUCCCAAGGCCAAGGGAGGAGAAGGCUGUCCCACGUGGGCCGCUGAACUGUGUCUGGAAUUCUCGGGUGCCAA; value = 0.264
Sequence = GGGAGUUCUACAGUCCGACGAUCAGGGAUGCAGAGUCUGAUGCCAGCGUCUUGCUGGGGGAGUGGCCUAGAAGGGGAUCCUAACAGGGACUUCUGGAGCAGACAGAGCCUGCCAGUGCCUGUGGAGUCAGCCAUGGAAUUCUCGGGUGCCAA; value = 1.3
Sequence = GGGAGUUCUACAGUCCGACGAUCUAAUCUUGCUGCUUAUGUGCCAAUUUAGUGGAAAAAAACAACCCUUGCUGAAAAAUUCCCUCUUUCCAUUCUCUUUCAAUUCUGUGAUAUUGUCCAAGAAUGUAUCAAUAUGGAAUUCUCGGGUGCCAA; value = 0.436
Sequence = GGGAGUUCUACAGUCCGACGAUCGUGGAAAGUCAAGGUUUGUGUCUUUUCUACUGAGGUCUCAGAAAGAGAGAGAACAUCUCUCCGGACCCCCUGACUCAGAGCCUCGUGGCCCGGCAUCCCUUAGCCUCUAUUGGAAUUCUCGGGUGCCAA; value = 0.408
Sequence = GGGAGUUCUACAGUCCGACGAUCCAGGCAUCAGGCCCAGUGACAGUGCACCAAAGACACAGAGCCUGGAAGGGCUGUCGGGACAUACUUUCUACAUAACGCUACAACCCUGACCAAGCAAAGACAUGCUUGUUUGGAAUUCUCGGGUGCCAA; value = 0.74
Sequence = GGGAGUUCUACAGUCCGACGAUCAUUUUUUUGUAGUUUAAAGAGCUUUAUUAAUGCAAUAAAUUAACUUUGUACAUUUUUAUAUUAAAAAAAAAAAAAGACUAUUAAGGGACUUCAGAAUGUUGUAGGCCUCAUGGAAUUCUCGGGUGCCAA; value = 3.85
Sequence = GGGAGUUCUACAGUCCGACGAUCAAUGUAUAUAUGAGUAGUUUGCCAUGAGAUAACACAGUGUAAACAGUAGACACCCAGAAAUCGUGACUUCUGUGUUCUCUCCAUUUGAGUAUUUUGUAAUUUUUUUGAAAUGGAAUUCUCGGGUGCCAA; value = 1.43
Sequence = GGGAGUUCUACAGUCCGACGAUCCUGAUGCCCAUGUUCCAGAGGAAUUCGGAUACCACAAACAGCUAAGACAAUCUCAGCUUUUCUUAGACAAUCUUCUAUCUCAAACUUCAGACAUUCCAGAAUUGUCAUGAUGGAAUUCUCGGGUGCCAA; value = 0.483
Sequence = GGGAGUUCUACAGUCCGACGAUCGUCCUCUGUGCGCACAGUAGGCCUUUGCUUUACCAUUCAACAGUUCUGACUUAGGCAUGUGUAGAUGGGUCCUUAGAUUCGUCCCGAGGAAGAGACUGCAAAGACACAUGUGGAAUUCUCGGGUGCCAA; value = 0.376

Set 4
Target: Ras GTPase-activating protein-binding protein 1, RRM domain (G3BP1, Homo sapiens, UniProt Q13283)
Chain of UniProt Q13283 (whole entry, looked up): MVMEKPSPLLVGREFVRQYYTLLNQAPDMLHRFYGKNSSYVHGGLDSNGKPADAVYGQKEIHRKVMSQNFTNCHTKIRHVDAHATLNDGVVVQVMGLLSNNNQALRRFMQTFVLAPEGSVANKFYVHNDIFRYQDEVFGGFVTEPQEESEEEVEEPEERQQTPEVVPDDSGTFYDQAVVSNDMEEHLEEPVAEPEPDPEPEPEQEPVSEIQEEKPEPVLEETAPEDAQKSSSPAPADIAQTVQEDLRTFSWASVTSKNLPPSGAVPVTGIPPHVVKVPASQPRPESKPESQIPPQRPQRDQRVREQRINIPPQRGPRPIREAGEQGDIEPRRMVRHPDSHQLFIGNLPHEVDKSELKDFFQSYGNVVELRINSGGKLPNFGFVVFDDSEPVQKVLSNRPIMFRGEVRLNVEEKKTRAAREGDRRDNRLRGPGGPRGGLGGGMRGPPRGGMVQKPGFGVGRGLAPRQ
Method: RNA Bind-n-Seq
Molecule type: RNA
Medium: in vitro
Tested at: 1 µM
Setting: whole 134-nt RNA, ends assumed
Added: 150 mM KCl
Relative to: input library
Direction: higher = stronger binding
Endpoint: log2 enrichment
Sequence = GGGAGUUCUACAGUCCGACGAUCUGGCCCUGGUGGCAUGCGGGGAGGAAGAGGUGGCCUCAUGGUUCGUGGUGGUCCCGGUGGAAUGUUCAGAGGUGGCCGUGGUGGAGACAGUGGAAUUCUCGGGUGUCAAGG; value = 0.415
Sequence = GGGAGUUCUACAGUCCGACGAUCCUGUGCUACACAUCGUAUGUACCGAAUCGGGGUUUUUUUGGUUUUUUUGGGUUUUUUUGGGGAAAGUAUUAUGUUACGCCGUUCGGAUCUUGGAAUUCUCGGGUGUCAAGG; value = -0.345
Sequence = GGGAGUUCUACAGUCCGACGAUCAGUCCUGUGCUACACAUCGUAUGUACCGAAUCGGGGUGGGGAAAAAGGGGUUUGGGGAAAGUAUUAUGUUACGCCGUUCGGAUCUGCACUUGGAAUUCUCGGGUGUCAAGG; value = 0.972
Sequence = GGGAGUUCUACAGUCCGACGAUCCUGUGCUACACAUCGUAUGUACCGAAUCGGGGUUUUUUUGGGGUUUUUGGGGAAAAAGGGGAAAGUAUUAUGUUACGCCGUUCGGAUCUGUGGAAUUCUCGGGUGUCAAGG; value = 0.802
Sequence = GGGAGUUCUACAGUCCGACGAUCCACAGACAAAAAGCACCCACACAGACACAGAGGGAAGGGGUUGGGAUGGGGACAGGGUGCACAGCAGGGCGGGGUAGGACCCCAGCCCCUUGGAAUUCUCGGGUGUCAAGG; value = -0.225
Sequence = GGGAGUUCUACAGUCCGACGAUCCAAGUCCUGUGCUACACAUCGUAUGUACCGAAUCGGAAAGGGAAAGGGGAAAGGGAAAGUAUUAUGUUACGCCGUUCGGAUCUGCACUUCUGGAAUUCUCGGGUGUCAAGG; value = -0.0668
Sequence = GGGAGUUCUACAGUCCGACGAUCGCAGGAAGUAAAAACAACUGGAAAUGCUUCGGAUAGUGGCAGGGGUGGGGGUUGCUAAGGAAAGGGUGGGAUGGGAGUGGGUAAAGAGUUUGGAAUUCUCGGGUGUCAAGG; value = 0.952
Sequence = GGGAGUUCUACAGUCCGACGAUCUGAAGACACAGCAUCCACCCGAUCUUCAUUCACUGUCCAAGACCUUAAACCUUUUACAGAAUAUGUGUUUAGGAUUCGCUGUAUGAAGGAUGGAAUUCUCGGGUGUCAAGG; value = 0.0518
Sequence = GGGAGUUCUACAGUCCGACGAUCUGGGAGGUGGAUUUUGUUUAUUUUUUUAGCUCAUUUCCAGGGGUGGGAAUUUUGUUUUAAUAUGUGUCAUGAAUAAAGUUGUUUUUGAAAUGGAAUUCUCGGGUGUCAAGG; value = 1.36
Sequence = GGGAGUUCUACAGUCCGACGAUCUCAAGUCCUGUGCUACACAUCGUAUGUACCGAAUCGGUUUGGAAAAAAAGGAGGAAAGUAUUAUGUUACGCCGUUCGGAUCUGCACUUCCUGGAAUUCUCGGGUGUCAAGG; value = -0.122
